Results from different studies.
Several values in a cell are separate wells, animals, samples, runs or records. ± gives the spread as reported.
UCHL1: Ubiquitin carboxyl-terminal hydrolase isozyme L1 (UCHL1, Homo sapiens, UniProt P09936)
Chain of UniProt P09936 (whole entry, looked up): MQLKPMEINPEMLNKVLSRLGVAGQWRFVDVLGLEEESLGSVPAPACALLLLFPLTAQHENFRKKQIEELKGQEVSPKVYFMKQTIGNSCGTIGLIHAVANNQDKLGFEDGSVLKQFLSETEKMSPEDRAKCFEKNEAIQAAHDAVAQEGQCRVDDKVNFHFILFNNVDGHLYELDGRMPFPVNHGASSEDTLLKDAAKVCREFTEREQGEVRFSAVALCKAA
Nicotinic acetylcholine receptor alpha1/beta1/epsilon/delta: Nicotinic acetylcholine receptor alpha1/beta1/epsilon/delta (Mus musculus, UniProt P02716+P04756+P09690+P20782)
Chain of UniProt A5GZW8 (whole entry, looked up): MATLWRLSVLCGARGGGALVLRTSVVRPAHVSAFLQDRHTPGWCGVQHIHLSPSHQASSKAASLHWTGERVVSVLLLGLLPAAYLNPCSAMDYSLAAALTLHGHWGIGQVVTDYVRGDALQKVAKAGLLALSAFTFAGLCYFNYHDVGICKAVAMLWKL
Chain of UniProt Q007T0 (whole entry, looked up): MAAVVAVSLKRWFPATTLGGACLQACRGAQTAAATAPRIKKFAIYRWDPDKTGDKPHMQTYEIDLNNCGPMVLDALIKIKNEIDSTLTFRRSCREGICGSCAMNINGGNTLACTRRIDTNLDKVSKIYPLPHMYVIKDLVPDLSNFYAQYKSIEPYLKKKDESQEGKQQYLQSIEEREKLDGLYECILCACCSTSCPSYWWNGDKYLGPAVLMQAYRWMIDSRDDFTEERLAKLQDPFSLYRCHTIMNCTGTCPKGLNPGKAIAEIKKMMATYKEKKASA
Chain of UniProt D0VWV4 (whole entry, looked up): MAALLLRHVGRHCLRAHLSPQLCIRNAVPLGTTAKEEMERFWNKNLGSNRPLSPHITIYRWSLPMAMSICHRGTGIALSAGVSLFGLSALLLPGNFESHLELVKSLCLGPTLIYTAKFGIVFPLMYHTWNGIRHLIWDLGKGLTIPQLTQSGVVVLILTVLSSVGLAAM
Chain of UniProt P27361 (whole entry, looked up): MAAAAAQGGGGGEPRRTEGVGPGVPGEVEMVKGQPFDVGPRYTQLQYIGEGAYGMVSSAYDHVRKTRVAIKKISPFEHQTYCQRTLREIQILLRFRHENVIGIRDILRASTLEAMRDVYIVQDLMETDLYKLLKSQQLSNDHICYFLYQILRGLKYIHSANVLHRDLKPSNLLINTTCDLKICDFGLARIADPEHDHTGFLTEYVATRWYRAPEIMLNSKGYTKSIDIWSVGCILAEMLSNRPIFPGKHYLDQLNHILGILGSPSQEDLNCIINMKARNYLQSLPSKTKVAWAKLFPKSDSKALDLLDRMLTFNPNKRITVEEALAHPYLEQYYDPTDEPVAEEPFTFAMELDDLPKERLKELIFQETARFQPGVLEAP
Chain of UniProt P20782 (whole entry, looked up): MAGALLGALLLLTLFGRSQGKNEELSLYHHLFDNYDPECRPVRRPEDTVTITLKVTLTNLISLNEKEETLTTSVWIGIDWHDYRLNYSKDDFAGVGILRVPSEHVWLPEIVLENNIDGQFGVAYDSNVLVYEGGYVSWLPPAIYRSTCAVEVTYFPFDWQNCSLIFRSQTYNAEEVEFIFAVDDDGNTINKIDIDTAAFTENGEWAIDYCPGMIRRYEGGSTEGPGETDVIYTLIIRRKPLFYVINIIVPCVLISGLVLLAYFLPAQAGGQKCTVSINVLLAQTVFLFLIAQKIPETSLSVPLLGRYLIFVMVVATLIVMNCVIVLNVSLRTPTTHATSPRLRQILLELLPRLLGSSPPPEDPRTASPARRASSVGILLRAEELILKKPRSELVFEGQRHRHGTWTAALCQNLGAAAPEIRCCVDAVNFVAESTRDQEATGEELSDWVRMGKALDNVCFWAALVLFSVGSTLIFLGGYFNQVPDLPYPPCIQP
Chain of UniProt P04756 (whole entry, looked up): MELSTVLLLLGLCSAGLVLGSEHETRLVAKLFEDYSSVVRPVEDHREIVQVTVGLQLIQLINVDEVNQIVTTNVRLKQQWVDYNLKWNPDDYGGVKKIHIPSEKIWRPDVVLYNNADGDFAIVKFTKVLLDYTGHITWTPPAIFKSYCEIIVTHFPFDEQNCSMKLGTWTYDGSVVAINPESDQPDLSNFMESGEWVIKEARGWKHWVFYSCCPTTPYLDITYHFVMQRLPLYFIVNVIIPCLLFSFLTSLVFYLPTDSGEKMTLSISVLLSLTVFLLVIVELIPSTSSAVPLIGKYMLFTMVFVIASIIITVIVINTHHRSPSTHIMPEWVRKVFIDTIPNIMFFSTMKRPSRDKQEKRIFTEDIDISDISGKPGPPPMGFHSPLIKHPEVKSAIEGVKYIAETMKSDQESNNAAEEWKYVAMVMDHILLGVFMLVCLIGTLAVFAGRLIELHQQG
Chain of UniProt P09690 (whole entry, looked up): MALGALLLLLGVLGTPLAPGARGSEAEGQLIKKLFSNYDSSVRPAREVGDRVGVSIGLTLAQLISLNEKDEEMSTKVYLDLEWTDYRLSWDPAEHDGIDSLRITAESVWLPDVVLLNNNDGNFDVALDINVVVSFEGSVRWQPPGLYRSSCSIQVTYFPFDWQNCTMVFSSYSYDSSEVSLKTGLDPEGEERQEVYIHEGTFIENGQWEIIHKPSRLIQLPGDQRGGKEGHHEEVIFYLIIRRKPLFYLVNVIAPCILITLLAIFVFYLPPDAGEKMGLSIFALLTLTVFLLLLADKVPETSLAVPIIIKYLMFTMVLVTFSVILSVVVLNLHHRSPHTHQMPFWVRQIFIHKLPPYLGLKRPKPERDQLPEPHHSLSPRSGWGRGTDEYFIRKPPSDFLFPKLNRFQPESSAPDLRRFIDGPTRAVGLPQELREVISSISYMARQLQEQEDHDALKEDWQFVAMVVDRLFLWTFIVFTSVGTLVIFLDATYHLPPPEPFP
Chain of UniProt P02716 (whole entry, looked up): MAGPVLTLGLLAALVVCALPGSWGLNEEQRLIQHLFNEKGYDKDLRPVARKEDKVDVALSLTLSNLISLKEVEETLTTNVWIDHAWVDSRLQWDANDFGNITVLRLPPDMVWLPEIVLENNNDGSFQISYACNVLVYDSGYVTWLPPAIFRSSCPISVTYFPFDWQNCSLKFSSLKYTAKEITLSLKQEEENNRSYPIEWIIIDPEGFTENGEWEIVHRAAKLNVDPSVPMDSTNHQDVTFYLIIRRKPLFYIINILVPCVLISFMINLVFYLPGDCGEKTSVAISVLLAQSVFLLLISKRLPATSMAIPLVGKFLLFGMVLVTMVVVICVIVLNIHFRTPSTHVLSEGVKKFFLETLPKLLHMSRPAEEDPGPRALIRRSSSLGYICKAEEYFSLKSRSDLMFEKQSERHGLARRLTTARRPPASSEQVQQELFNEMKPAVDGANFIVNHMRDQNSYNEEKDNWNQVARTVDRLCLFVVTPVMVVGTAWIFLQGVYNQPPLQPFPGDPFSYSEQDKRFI
Chain of UniProt P0A0C1 (whole entry, looked up): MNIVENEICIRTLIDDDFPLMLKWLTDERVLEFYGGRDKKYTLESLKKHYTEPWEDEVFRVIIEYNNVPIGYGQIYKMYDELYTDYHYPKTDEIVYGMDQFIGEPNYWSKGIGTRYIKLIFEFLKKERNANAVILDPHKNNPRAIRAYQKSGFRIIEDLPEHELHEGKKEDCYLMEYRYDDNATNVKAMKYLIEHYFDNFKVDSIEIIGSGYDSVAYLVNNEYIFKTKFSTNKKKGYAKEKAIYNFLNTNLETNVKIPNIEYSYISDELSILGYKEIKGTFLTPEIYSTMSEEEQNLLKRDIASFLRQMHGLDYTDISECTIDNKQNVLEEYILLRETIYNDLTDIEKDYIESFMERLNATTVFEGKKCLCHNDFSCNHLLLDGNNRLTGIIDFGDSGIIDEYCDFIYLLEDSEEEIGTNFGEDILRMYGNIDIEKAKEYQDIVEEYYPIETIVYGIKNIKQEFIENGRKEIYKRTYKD
Chain of UniProt P48147 (whole entry, looked up): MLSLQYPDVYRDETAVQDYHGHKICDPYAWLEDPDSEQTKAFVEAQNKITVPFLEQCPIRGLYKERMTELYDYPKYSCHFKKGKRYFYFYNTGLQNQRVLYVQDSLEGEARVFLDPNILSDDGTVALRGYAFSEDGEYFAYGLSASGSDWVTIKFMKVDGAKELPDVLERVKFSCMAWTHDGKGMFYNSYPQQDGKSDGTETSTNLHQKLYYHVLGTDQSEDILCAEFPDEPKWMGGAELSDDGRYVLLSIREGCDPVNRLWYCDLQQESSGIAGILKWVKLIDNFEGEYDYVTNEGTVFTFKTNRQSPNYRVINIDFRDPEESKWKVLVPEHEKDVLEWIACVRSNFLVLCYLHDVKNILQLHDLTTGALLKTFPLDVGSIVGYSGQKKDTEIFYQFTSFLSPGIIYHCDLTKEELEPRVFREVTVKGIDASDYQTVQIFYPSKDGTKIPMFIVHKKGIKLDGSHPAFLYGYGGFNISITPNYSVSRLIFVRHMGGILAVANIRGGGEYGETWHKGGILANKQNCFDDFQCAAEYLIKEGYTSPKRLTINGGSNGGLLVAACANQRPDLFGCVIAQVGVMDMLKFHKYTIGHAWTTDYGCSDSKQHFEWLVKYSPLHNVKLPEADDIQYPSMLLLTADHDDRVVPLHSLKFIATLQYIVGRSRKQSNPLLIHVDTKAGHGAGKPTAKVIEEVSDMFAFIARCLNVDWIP
Chain of UniProt P00942 (whole entry, unmodified, looked up): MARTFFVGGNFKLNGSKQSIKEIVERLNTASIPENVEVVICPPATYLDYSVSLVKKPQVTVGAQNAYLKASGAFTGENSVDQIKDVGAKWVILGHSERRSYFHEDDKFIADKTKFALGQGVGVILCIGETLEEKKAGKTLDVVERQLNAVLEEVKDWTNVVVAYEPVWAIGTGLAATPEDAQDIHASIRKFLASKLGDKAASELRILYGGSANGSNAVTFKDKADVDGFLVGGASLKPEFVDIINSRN
Chain of UniProt P63208 (whole entry, looked up): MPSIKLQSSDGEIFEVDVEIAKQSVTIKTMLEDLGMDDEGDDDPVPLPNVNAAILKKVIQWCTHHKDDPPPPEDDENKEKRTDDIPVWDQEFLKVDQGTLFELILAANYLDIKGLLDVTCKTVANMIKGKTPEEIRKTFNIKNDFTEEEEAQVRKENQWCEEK

Structure (SMILES) | target | assay | system | conditions | how to read | measurement | value
O=C1Nc2ccc3ncsc3c2/C1=C/c1cnc[nH]1 | TRPM8 (Homo sapiens, UniProt Q7Z2W7) | antagonist | HEK293 | 5 µM | – | remaining activity | 68.6 ± 9.62%
COc1cc(N)c(Cl)cc1C(=O)NC1CN2CCC1CC2 (stereo not drawn) | GPR4 (Homo sapiens, UniProt P46093) | β-arrestin recruitment, TANGO luminescence | – | concentration not given | baseline: basal luminescence | log2 fold change | 0.02
O=C(O)C(F)(F)C(F)(F)C(F)(F)C(F)(F)C(F)(F)C(F)(F)C(F)(F)C(F)(F)C(F)(F)C(F)(F)C(F)(F)F | Albumin (ALB, Homo sapiens, UniProt P02768) | – | – | ligand to HSA 1:1 | baseline: HSA alone | ΔTm first transition | 2.9 °C
O=C(CCl)c1ccoc1 | UCHL1 | covalent, intact protein LC-MS | – | 12.5 µM | – | labelling | 8.48%
Cc1ncsc1-c1ccc([C@H](CC(=O)N2CCN(c3ccc(C#Cc4ccc(C(=O)N5CCC(n6cc(-c7ccc8c(c7)CCN8C(=O)Cc7cccc(OC(F)(F)F)c7)c7c(N)ncnc76)CC5)cc4)cn3)CC2)NC(=O)[C@@H]2C[C@@H](O)CN2C(=O)[C@@H](NC(=O)C2(F)CC2)C(C)(C)C)cc1 | RIPK1 (Homo sapiens, UniProt Q13546) | degrader | nude mice, Jurkat xenograft, tumour | intravenous, 10 mg/kg, 6 h, single dose | – | protein reduction | > 70%
[2H]c1c([2H])c([C@]2([2H])CCCN2C(=O)C(C)(C)Oc2ccc3cn[nH]c3c2)c([2H])c([2H])c1C([2H])([2H])[2H] | Ribosomal protein S6 kinase alpha-2, N-terminal kinase domain (RPS6KA2, Homo sapiens, UniProt Q15349) | KINOMEscan | – | 1 µM | baseline: DMSO control | remaining binding | 81%
CC(=O)NC[C@H]1[C@H](O)[C@H](O)[C@@H]2[C@H](O)C[C@@H](CO)N21 | human placental β-N-acetylglucosaminidase | – | – | 0.01288 µM, run 2, together with: p-nitrophenyl GlcNAc | – | inhibition | 64.5%
CN1CCN(c2cc(-c3ccncc3)c(-c3ccc4ccccc4c3)nn2)CC1 | CCR9 (Homo sapiens, UniProt P51686) | agonist, FLIPR | – | 12.5 µM | – | activation | -0.1%
Cc1ccccc1N1CC[N+](C)(C)CC1.[I-] | Nicotinic acetylcholine receptor alpha1/beta1/epsilon/delta | ion current, inhibitor, two-electrode voltage clamp | Xenopus oocytes | 30 µM, after co-application, unit not given, together with: ACh 30 µM | baseline: ACh alone | ACh response | 0.46 ± 0.214
O=C(c1ccc(Cl)cc1)N1CCN2C(=O)N(OC(=O)N3CCOc4ccccc43)C(=O)C2C1 (stereo not drawn) | PREP (Homo sapiens, UniProt P48147) | MS-based ABPP | SW-620 conditioned medium | 10 µM, 1 h, 37 °C | baseline: compound over DMSO, lower = more inhibition | median protein ratio | 1.01
CN(C(=O)n1cnc(-c2ccc[n+]([O-])c2)c1)C1CCCCC1 | Faah (Rattus norvegicus, UniProt P97612) | enzyme activity, ABPP | rat, brain | oral, 10 mg/kg/day, 1 days | baseline: vehicle | fold change | -42.3
COc1cc(Nc2ncc(F)c(Nc3ccc4c(n3)NC(=O)C(C)(C)O4)n2)cc(OC)c1OC | ACVRL1 (Homo sapiens, UniProt P37023) | KINOMEscan | – | 10 µM | – | inhibition | 0%
Cc1nn(C)cc1-c1nc2c(N3CCN(Cc4ccc(Cl)cc4)CC3)c(Cl)cnc2[nH]1 | VRK2 (Homo sapiens, UniProt Q86Y07) | KINOMEscan | – | 1 µM | baseline: DMSO control | remaining binding | 100%
CCOC(=O)CC(CC(=O)OCC)(OC(C)=O)C(=O)OCC | S-phase kinase-associated protein 1 (SKP1, Homo sapiens, UniProt P63208) | binding, affinity selection mass spectrometry | – | 100 nM, pooled screen | baseline: other proteins | fold change | 10.8
CC(C)(O/N=C(\C(=O)N[C@@H]1C(=O)N2C(C(=O)[O-])=C(C[N+]3(CCNC(=O)c4ccc(O)c(O)c4Cl)CCCC3)CS[C@H]12)c1csc(N)n1)C(=O)O | Metallo-beta-lactamase type 2 (Serratia marcescens, UniProt P52699) | substrate, stopped-flow fluorescence | – | pH 7.5, 10 °C | baseline: NDM-1 | Trp fluorescence recovery time | 30 fold
O=C(Nc1cccnn1)N1CCC(=Cc2cccc(Oc3ccc(C(F)(F)F)cn3)c2)CC1 | OPRK1 (Homo sapiens, UniProt P41145) | radioligand binding, inhibitor | – | 10 µM, human, together with: [3H]diprenorphine | – | inhibition | 47%
COC(=O)[C@@]1(O)C[C@H]2O[C@]1(C)n1c3ccccc3c3c4c(c5c6ccccc6n2c5c31)C(=O)NC4 | MAPK3 (Homo sapiens, UniProt P27361) | ADP-Glo | – | 3.98 µM, together with: MBP substrate | – | kinase activity | 8.39% and 1.78% and 2.69%
CC[N+]1(C)CCN(c2ccccc2Cl)CC1.[I-] | Nicotinic acetylcholine receptor alpha1/beta1/epsilon/delta | ion current, inhibitor, two-electrode voltage clamp | Xenopus oocytes | 30 µM, after co-application, unit not given, together with: ACh 30 µM | baseline: ACh alone | ACh response | 0.638 ± 0.182
CC[C@@H](C)[C@@H](NC(=O)[C@@H](Cc1ccc(O)cc1)NC(=O)[C@H]1CCCN1C(=O)[C@@H](CCCNC(=N)N)NC(=O)[C@H](N)Cc1c[nH]cn1)C(=O)N[C@H](C)C(=O)N[C@H](Cc1c[nH]cn1)C(=O)N[C@H](CCCNC(=N)N)C(=O)N[C@H](CCCCNC(=O)c1cccc(S(=O)(=O)F)c1)C(=O)N[C@H](Cc1ccc(O)cc1)C(=O)N[C@H](CO)C(=O)N[C@H](Cc1ccccc1)C(N)=O | Transferrin receptor protein 1 (Tfrc, Mus musculus, UniProt Q62351) | flow cytometry | DC2.4 | 2 h, pH 6, replicate 3, unit not given | baseline: 0 h | surface TFRC expression | 0.896
C=C(CN(C(=O)c1c(C(F)F)nn(C)c1F)C1CC1)c1ccc(Cl)cc1Cl | SDHD/SDHC/SDHB (Sus scrofa, UniProt A5GZW8+D0VWV4+Q007T0) | enzyme activity, inhibitor, DCIP reduction | pig | 0.06 µM, together with: DCIP 20 µM | – | reaction velocity | 0.00827 µM/s and 0.00799 µM/s and 0.0092 µM/s
O=C(CCl)C1CC1(Cl)Cl (stereo not drawn) | UCHL1 | covalent, intact protein LC-MS | – | 12.5 µM | – | labelling | 10.1%
CN(C(=O)n1cnc(-c2ccc[n+]([O-])c2)c1)C1CCCCC1 | CYSLTR2 (Homo sapiens, UniProt Q9NS75) | radioligand binding | – | 50 µM, together with: [3H]LTD4 | – | inhibition | 1%
O=C(O)COP(=O)(O)O | TPI1 (Saccharomyces cerevisiae, UniProt P00942, Y208S) | enzyme activity, competitive inhibitor, GPDH/NADH-coupled | – | pH 8.3, 25 °C, ionic strength 0.1 NaCl, together with: glyceraldehyde 3-phosphate substrate | baseline: mutant over wild type | Ki ratio | 44
CC(C)[C@@H](O)CC[C@@H](C)[C@H]1CC[C@H]2[C@@H]3CC=C4C[C@@H](O)CC[C@]4(C)[C@H]3CC[C@]12C | Glutamate NMDA receptor; GRIN1/GRIN2B (GRIN1/GRIN2B, Homo sapiens, UniProt Q05586+Q13224, N650A) | positive allosteric modulator, two-electrode voltage clamp | Xenopus oocytes expressing GluN1-N650A | 10 µM, 0.02% cremophor, together with: 100 µM glutamate and glycine | baseline: without compound | current response | 250 ± 13%
O=C(O)C(F)(F)C(F)(F)C(F)(F)C(F)(F)C(F)(F)C(F)(F)C(F)(F)F | SLC22A11 (Homo sapiens, UniProt Q9NSA0) | substrate | HEK293 stably expressing | 10 µM | – | linear uptake duration | 2.5 min
C#CCCCCNC(=O)CI | NCEH1 (Homo sapiens, UniProt Q6PIU2) | mass spectrometry profiling | Ramos cell lysate | 100 µM over 10 µM, UniProt Q6PIU2 | baseline: high over low concentration | reactivity ratio | 1.3
C[C@H]1CN(c2n[nH]c3nc(N[C@H]4CC[C@H](NS(=O)(=O)CCC(F)(F)F)CC4)ncc23)CCO1 | ACAD10 (Homo sapiens, UniProt Q6JQN1) | inhibitor, Kinobeads competition profiling | – | 0.8 µM | baseline: vehicle | relative abundance | 1.19
Nc1ccccc1NC(=O)[C@@H]1CS[C@H]2CS[C@H](CS)N21 | sfhI (Serratia fonticola, UniProt Q9RMI1) | activity class | – | concentration not given | – | activity | inactive
O=C(Nc1cnccc1Cl)N1CCN(Cc2ccc3c(c2)OC(F)(F)O3)CC1 | SIGMAR1 (Homo sapiens, UniProt Q99720) | radioligand binding, inhibitor | – | 50 µM, human, together with: [3H]haloperidol | – | inhibition | 65%
Clc1cccc(COc2ccccc2CNCc2ccncc2)c1 | aacA-aphD, AAC(6')-Ie domain (Staphylococcus aureus, UniProt P0A0C1) | neomycin acetylation, inhibitor | – | together with: neomycin | – | highest concentration without inhibition | > 200 µM

A few entries again:
Structure (SMILES) | target | assay | system | conditions | how to read | measurement | value
C#CCCCCNC(=O)CI | NCEH1 (Homo sapiens, UniProt Q6PIU2) | mass spectrometry profiling | Ramos cell lysate | 100 µM over 10 µM, UniProt Q6PIU2 | baseline: high over low concentration | reactivity ratio | 1.3
O=C(CCl)c1ccoc1 | UCHL1 | covalent, intact protein LC-MS | – | 12.5 µM | – | labelling | 8.48%
CN(C(=O)n1cnc(-c2ccc[n+]([O-])c2)c1)C1CCCCC1 | CYSLTR2 (Homo sapiens, UniProt Q9NS75) | radioligand binding | – | 50 µM, together with: [3H]LTD4 | – | inhibition | 1%
